Measured values pooled from the literature.
Parts stem from different laboratories: compare values within a part only. “And” joins repeats or separate records; there may be more than shown.
Sequence of UniProt O75914 (whole entry, looked up): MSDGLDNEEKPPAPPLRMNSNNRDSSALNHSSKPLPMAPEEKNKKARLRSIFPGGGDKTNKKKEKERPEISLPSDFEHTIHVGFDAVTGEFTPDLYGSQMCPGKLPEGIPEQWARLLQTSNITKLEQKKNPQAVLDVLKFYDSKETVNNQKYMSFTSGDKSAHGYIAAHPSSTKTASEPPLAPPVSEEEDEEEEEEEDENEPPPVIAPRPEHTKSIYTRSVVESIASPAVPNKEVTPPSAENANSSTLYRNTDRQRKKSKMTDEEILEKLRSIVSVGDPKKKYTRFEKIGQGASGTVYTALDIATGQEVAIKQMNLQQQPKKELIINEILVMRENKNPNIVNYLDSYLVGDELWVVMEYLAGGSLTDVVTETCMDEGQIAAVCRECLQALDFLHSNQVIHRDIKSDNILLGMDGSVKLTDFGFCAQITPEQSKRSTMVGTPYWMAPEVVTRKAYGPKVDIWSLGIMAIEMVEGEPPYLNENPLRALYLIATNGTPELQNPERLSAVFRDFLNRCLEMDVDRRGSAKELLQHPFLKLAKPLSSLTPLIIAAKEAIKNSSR
Sequence of UniProt Q9UEE5 (whole entry, looked up): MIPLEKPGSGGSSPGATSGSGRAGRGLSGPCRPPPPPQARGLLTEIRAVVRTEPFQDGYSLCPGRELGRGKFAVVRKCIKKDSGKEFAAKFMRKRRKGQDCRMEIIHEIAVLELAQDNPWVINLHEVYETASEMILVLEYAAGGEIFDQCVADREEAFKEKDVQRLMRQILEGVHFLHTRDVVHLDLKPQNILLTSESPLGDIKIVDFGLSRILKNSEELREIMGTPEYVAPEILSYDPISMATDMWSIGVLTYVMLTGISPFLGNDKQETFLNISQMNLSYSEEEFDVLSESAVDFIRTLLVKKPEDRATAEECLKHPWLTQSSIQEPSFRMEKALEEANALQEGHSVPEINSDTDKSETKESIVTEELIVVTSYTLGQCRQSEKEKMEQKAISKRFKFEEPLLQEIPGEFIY
Sequence of UniProt Q15759 (whole entry, looked up): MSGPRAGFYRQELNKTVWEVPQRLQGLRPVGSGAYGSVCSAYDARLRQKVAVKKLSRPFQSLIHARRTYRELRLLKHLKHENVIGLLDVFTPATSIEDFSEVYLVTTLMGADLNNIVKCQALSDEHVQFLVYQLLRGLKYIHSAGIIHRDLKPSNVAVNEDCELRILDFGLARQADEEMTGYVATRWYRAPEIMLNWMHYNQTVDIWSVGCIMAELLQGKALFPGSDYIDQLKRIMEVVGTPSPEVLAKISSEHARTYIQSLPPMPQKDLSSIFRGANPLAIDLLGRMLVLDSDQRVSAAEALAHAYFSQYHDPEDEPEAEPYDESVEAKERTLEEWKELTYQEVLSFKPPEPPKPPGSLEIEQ
Sequence of UniProt Q13464 (whole entry, looked up): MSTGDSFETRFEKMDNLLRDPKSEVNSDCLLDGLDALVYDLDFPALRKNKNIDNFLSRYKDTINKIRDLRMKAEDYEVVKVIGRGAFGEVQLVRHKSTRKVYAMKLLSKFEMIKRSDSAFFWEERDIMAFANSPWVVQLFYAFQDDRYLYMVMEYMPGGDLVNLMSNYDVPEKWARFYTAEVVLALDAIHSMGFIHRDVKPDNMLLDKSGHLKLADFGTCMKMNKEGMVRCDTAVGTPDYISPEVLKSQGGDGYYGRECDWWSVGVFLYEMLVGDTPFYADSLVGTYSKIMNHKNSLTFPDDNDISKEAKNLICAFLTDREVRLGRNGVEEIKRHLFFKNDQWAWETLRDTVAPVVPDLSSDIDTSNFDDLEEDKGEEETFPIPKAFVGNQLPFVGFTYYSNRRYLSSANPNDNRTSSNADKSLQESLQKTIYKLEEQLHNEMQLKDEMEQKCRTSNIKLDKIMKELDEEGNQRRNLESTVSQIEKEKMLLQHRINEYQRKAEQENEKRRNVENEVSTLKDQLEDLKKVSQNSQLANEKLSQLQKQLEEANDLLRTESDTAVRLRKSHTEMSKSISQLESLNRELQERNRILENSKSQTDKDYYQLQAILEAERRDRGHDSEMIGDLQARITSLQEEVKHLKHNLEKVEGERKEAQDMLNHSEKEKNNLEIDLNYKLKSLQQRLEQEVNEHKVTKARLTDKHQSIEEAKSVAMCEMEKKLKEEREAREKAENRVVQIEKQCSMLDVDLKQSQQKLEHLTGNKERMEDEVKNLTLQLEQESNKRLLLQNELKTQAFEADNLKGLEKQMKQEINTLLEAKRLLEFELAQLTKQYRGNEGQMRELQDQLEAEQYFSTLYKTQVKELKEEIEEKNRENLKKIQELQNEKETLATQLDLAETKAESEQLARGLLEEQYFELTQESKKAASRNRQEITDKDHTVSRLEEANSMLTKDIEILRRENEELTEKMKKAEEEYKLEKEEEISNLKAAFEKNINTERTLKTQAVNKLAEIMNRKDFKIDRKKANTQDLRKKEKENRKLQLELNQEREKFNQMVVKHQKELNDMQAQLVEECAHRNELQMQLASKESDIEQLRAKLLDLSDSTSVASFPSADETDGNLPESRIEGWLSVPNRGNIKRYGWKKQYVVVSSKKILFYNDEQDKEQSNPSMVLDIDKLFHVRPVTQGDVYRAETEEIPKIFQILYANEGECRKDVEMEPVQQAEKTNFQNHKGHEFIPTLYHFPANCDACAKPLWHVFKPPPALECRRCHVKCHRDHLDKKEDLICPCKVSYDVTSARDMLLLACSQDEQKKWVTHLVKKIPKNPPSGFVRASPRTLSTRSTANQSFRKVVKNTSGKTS
Sequence of UniProt Q6P2M8 (whole entry, looked up): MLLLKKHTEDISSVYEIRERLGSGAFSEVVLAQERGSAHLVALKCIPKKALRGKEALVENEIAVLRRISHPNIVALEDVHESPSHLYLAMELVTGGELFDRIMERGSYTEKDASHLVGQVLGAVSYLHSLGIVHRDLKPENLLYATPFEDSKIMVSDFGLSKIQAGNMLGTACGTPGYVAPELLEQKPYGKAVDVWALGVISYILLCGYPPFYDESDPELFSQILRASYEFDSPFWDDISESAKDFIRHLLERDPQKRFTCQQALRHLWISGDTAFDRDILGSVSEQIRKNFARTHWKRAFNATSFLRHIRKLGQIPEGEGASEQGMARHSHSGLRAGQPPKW

Block 1
Structure (SMILES): Fc1ccc(-c2nc3n(c2-c2ccncc2)CCS3)cc1
Effect on: enzyme activity
Mode: inhibitor
Concentration: 0.5 µM
Relative to: control
target	remaining activity [%]
G protein-coupled receptor kinase 4 (GRK4, Homo sapiens, UniProt P32298)	95.7
Cyclin-dependent kinase 1, with cyclin A (CDK1, Homo sapiens, UniProt P06493)	94.7
Calcium/calmodulin-dependent protein kinase type IV (CAMK4, Homo sapiens, UniProt Q16566)	99.8
Mitogen-activated protein kinase 11 (MAPK11, Homo sapiens, UniProt Q15759)	97.2
Calcium/calmodulin-dependent protein kinase type 1B (PNCK, Homo sapiens, UniProt Q6P2M8)	90.3
Rho-associated protein kinase 1 (ROCK1, Homo sapiens, UniProt Q13464)	103
Cyclin-dependent kinase 9, with cyclin K (CDK9, Homo sapiens, UniProt P50750)	102
Serine/threonine-protein kinase MARK2 (MARK2, Homo sapiens, UniProt Q7KZI7)	96.4
Misshapen-like kinase 1 (MINK1, Homo sapiens, UniProt Q8N4C8)	97.7
Serine/threonine-protein kinase PAK 3 (PAK3, Homo sapiens, UniProt O75914)	104
cGMP-dependent protein kinase 2 (PRKG2, Homo sapiens, UniProt Q13237)	93.9
Ribosomal protein S6 kinase alpha-4 (RPS6KA4, Homo sapiens, UniProt O75676)	88.8
MAP/microtubule affinity-regulating kinase 4 (MARK4, Homo sapiens, UniProt Q96L34)	106
RAC-beta serine/threonine-protein kinase (AKT2, Homo sapiens, UniProt P31751)	95.9

Block 2
SMILES: CO[C@@H]1[C@@H](OC(N)=O)[C@@H](O)[C@H](Oc2ccc3c(O)c(NC(=O)c4ccc(O)c(CC=C(C)C)c4)c(=O)oc3c2C)OC1(C)C
Effect on: ATPase activity
Method: ADP-Glo
Relative to: DMSO
BLM: RecQ-like DNA helicase BLM (BLM, Homo sapiens, UniProt P54132)
Sequence of UniProt P54132 (whole entry, looked up): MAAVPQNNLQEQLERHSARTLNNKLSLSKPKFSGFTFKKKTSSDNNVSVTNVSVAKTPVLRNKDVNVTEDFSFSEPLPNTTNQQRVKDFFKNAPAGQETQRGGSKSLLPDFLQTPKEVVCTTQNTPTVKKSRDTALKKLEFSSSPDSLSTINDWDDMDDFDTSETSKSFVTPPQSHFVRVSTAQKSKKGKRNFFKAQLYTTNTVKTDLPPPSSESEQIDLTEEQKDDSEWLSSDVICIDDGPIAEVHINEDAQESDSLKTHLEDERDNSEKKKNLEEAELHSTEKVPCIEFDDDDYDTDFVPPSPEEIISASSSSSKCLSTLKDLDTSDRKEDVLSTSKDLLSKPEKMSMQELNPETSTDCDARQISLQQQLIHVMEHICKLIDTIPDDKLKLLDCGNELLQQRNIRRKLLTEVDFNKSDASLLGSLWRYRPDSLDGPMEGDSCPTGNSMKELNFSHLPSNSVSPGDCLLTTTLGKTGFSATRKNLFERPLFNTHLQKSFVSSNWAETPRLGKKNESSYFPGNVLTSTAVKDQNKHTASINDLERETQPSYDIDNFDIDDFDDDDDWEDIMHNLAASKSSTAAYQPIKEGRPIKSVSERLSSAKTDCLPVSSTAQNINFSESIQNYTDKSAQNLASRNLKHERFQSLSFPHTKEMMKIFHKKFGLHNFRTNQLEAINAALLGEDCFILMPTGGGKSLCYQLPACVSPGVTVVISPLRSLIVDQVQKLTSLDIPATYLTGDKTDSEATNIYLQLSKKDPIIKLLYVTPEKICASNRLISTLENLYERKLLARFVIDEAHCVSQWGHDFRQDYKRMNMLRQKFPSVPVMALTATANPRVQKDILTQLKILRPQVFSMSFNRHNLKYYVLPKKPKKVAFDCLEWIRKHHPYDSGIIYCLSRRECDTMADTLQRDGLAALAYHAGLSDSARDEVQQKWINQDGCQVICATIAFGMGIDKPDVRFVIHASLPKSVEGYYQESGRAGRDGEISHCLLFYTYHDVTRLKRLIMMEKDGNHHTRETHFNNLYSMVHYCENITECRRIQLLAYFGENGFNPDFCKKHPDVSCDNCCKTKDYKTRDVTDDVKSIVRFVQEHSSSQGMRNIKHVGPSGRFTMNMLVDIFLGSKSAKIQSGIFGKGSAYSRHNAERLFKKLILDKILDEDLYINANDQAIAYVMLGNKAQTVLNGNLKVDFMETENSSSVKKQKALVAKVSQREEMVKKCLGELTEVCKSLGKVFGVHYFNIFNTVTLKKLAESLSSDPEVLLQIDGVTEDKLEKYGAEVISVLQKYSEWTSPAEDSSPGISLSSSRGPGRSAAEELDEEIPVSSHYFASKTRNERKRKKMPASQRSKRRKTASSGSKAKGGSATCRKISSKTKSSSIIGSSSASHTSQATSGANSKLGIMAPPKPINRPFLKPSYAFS
TRIP13: Pachytene checkpoint protein 2 homolog (TRIP13, Homo sapiens, UniProt Q15645)
Sequence of UniProt Q15645 (whole entry, looked up): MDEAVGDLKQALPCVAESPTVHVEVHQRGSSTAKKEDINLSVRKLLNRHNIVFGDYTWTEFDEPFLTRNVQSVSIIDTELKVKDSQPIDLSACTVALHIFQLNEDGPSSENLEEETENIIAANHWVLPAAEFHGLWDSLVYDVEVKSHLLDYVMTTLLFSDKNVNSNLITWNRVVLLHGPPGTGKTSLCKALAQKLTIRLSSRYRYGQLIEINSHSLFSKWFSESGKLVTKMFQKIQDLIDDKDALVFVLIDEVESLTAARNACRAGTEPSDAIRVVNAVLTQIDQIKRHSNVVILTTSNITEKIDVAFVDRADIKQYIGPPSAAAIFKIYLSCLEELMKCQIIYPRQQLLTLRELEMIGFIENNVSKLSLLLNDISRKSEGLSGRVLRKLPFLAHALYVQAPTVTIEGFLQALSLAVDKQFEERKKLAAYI
target	concentration	remaining activity
BLM	100 µM	88.4% and 63.7% and 47.6% and 81.9% and 90.4% and 84.2%
TRIP13	25 µM	95.8% and 95.1% and 101% and 72.5% and 89.9% and 104%
TRIP13	100 µM	109% and 104% and 106% and 113% and 108%
BLM	50 µM	88.4% and 104% and 88.3% and 84.8% and 93.1% and 94.9%

Block 3
Target: Bromodomain-containing protein 4, BD1 (BRD4, Homo sapiens, UniProt O60885)
Effect on: acetyl-histone H4 peptide binding
Method: AlphaScreen displacement
Concentration: 50 µM
SMILES	inhibition
CCOC(=O)CCNc1ccc(Nc2ccc(C)cc2)c2c1C(=O)c1ccccc1C2=O	90.2%
COc1cccc(Nc2ncc3c(n2)CCN(C(=O)OC(C)(C)C)C3)c1	32.2%
O=C(Nc1nccs1)c1n[nH]c2ccccc12	16.6%
COC(=O)CCC(=O)NNC(=O)c1c(O)c2ccccc2[nH]c1=O	29.2%
O=C(CSc1ccc2nnc(-c3cccc(F)c3)n2n1)Nc1ccc(Cl)cc1	-5.25%
OC1CCCN(Cc2c(-c3ccc(F)cc3)[nH]c3ncccc23)C1 (stereo not shown)	8.4%
CC(=O)Nc1ccc(C=C(C#N)c2nc3ccccc3s2)cc1	7.75%

Block 4
Structure (SMILES): CCC(=O)N[C@H]1CC[C@@H](C(=O)N(C)c2ccc(-c3nc4ccccc4o3)cc2)C1
Effect on: cell-free assay
Method: competition with immobilised ligand
Concentration: 1 µM
target	remaining binding
Mitogen-activated protein kinase kinase kinase 10 (MAP3K10, Homo sapiens, UniProt Q02779)	91%
Mitogen-activated protein kinase kinase kinase kinase 5 (MAP4K5, Homo sapiens, UniProt Q9Y4K4)	100%
Phosphatidylinositol 5-phosphate 4-kinase type-2 beta (PIP4K2B, Homo sapiens, UniProt P78356)	54%
Cyclin-dependent kinase 16 (CDK16, Homo sapiens, UniProt Q00536)	88%
Phosphatidylinositol 4,5-bisphosphate 3-kinase catalytic subunit alpha isoform (PIK3CA, Homo sapiens, UniProt P42336, E545A)	90%
Serine/threonine-protein kinase 17A (STK17A, Homo sapiens, UniProt Q9UEE5)	91%

Some of these lines once more (block 1):
target	remaining activity [%]
MAP/microtubule affinity-regulating kinase 4 (MARK4, Homo sapiens, UniProt Q96L34)	106
RAC-beta serine/threonine-protein kinase (AKT2, Homo sapiens, UniProt P31751)	95.9
